Assay results of several laboratories.
Parts stem from different laboratories: compare values within a part only. Changes are numbered by the printed parent chain.

Set 1 — cell line: yeast with cyclin D1-Cln2 chimera; effect on: cell growth; action: binder; method: competitive growth deep sequencing; molecule type: peptide; tested at: concentration not given; setting: peptide tiling library; reading: direction not given
| Sequence | growth enrichment score |
| --- | --- |
| PPTFLSTGEIHAFLSS | 1.1 |
| SFLIEYEFLIPPSLKP | 0.891 |
| NRLLKLFTRCLTPLVP | -0.887 |
| NESHLDKEHDAVEVAD | 1 |
| NLEPNAEFDKRTEFIT | 1.52 |
| KVRRNLFNQELLSP | -0.171 |
| ATNSSHTDAHEILVSD | 1.28 |
| VSRNLRSSLKSSLHTL | -0.798 |
| SPREGHMMDALYAQVK | 1.27 |
| ELGMEHCEKFEISETS | 1.1 |

Set 2 — target: CREB3, bZIP domain (human); method: DHFR protein complementation; sample: yeast; reference: wild-type JUN-FOS pair; reading: higher = stronger binding
Setting: single substitutions, most at no-binding floor
Parent: JUN, bZIP domain (human); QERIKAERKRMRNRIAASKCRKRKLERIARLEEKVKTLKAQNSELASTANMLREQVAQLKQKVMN; partner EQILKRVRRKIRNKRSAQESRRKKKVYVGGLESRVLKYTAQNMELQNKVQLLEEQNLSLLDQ
| Substitution | binding fitness [natural log] |
| --- | --- |
| S43H | -1.47 |
| E32I | -1.35 |
| M51T | -1.27 |
| V56T | -1.55 |
| E54V | -1.54 |
| V56D | -1.54 |
| S43E | -1.26 |
| T37N | -1.24 |
| K36C | -1.29 |
| M51S | -1.31 |
| A29F | -1.45 |
| K39F | -1.38 |
| A29V | -1.46 |
| S43M | -1.4 |
| V35P | -1.52 |
| A57V | -1.03 |
| A46I | -1.45 |
| L38E | -1.55 |
| K36T | -1.51 |
| M51W | -1.39 |

Set 3 — method: RNAcompete; molecule type: RNA; sample: in vitro; tested at: 20 nM; setting: 7-mer, probes averaged, single round; reference: mean of 7-mers; reading: higher = stronger binding
Target: PABPC1L2, full length, GST fusion (mouse, UniProt A0ABA7IW68)
Residues (chain): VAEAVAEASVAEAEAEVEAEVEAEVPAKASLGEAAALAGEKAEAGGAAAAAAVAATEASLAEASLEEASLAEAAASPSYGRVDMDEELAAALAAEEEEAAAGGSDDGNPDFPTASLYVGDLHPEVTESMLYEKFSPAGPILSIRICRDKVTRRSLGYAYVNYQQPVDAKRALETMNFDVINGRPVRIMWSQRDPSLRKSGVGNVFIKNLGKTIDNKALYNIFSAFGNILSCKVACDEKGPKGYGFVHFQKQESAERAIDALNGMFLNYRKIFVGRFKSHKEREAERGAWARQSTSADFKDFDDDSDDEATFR
| Strand | 7-mer Z-score |
| --- | --- |
| GCUUUAA | 0.369 |
| CCACAAG | -0.222 |
| CACAAGC | -0.115 |
| GUGUUAG | -0.233 |
| GUCCGAU | -0.186 |
| GUGUGUA | -0.193 |
| CUCAAAU | -0.17 |
| AUAAUGC | 0.0334 |
| CCUCGGC | -0.289 |
| UAGAGGG | 0.207 |
| UGGGAUU | -0.0482 |
| GAGGGCU | 0.189 |
| UCGCCUA | -0.362 |
| UUAGGAG | 0.0623 |
| GAGCCUU | -0.418 |
| AGGUGCG | 0.157 |
| ACGGAUG | 0.0895 |
| UGCGUCA | -0.309 |
| ACGCACG | -0.0283 |
| GCGUCGC | -0.258 |
| GCACCAC | -0.0536 |
| UAGGGCU | 0.0243 |
| CUAUUGA | -0.175 |
| UACACAC | -0.101 |
| UUGUAAA | 0.602 |

Set 4 — method: DHFR PCA, deep sequencing; sample: yeast; together with: (+)-ABA 0.032 µM; reference: wild-type fitted maximum; reading: higher = stronger binding
Target: ABI1, truncated, D143A, DHFR fusion (Arabidopsis thaliana)
Setting: methotrexate growth selection, single substitutions
Parent: PYL1, truncated, DHFR fusion (Arabidopsis thaliana); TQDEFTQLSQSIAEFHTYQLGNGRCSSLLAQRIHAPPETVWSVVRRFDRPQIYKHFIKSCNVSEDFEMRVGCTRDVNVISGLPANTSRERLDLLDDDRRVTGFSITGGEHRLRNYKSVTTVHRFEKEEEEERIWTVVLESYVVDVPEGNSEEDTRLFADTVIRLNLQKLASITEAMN
| Substitution | relative binding score [%] |
| --- | --- |
| Q10Y | -0.112 |
| T17Q | 0.287 |
| R111D | 0.428 |
| G107Y | 0.607 |
| I79L | 7.88 |
| S80T | 31.2 |
| E125M | 28 |
| C60T | 3.51 |
| E131Q | 49.6 |
| N165Y | 0.0137 |
| F157H | 8.95 |
| N149V | 55.8 |
| W41P | -1.78 |
| F56H | 4.29 |
| Y115A | -0.983 |
| G107F | -1.19 |
| V100Y | -1.04 |

Set 5 — target: UBE2R2 UBC core domain (UniProt Q712K3); method: yeast two-hybrid; sample: yeast; setting: mostly zero background; reference: not given; reading: higher = stronger interaction
B1: NHLRC1 RING domain (UniProt Q6VVB1); chain MREAEISLLECKVCFEKFGHRQQRRPRNLSCGHVVCLACVAALAHPRTLALECPFCRRACRGCDTSD
B2: TRIM47 RING domain (UniProt Q96LD4); chain MDGSGPFSCPICLEPLREPVTLPCGHNFCLACLGALWPHRGASGAGGPGGAARCPLCQEPFPDGLQLR
B3: TRIM2 RING domain (UniProt Q9C040); chain VRQIDKQFLICSICLERYKNPKVLPCLHTFCERCLQNYIPAHSLTLSCPVCRQTSILPEKGV
B4: MDM2 RING domain (UniProt Q00987); chain TQDKEESVESSLPLNAIEPCVICQGRPKNGCIVHGKTGHLMACFTCAKKLKKRNKPCPVCRQPIQMIVLTYFP
B5: TRIM34 RING domain (UniProt Q9BYJ4); chain ILLNVQEEVTCPICLELLTEPLSLDCGHSLCRACITVSNKEAVTSMGGKSSCPVCGISYSFEHLQA
B6: RNF10 RING domain (UniProt Q8N5U6); chain VRICSHEVPSCPICLYPPTAAKITRCGHIFCWACILHYLSLSEKTWSKCPICYSSVHKKDLKS
B7: UBE4B RING domain (UniProt O95155); chain KNARAEIDYSDAPDEFRDPLMDTLMTDPVRLPSGTIMDRSIILRHLLNSPTDPFNRQTLTESMLEPVPELKEQIQAWMREKQNSDH
B8: CBLL1 RING domain (UniProt Q75N03); chain GEKDDTPVHFCDKCGLPIKIYGRMIPCKHVFCYDCAILHEKKGDKMCPGCSDPVQRIEQCT
B9: RNF7 RING domain (UniProt Q9UBF6); chain AICRVQVMDACLRCQAENKQEDCVVVWGECNHSFHNCCMSLWVKQNNRCPLCQQDWVVQRIGK
Residues (chain): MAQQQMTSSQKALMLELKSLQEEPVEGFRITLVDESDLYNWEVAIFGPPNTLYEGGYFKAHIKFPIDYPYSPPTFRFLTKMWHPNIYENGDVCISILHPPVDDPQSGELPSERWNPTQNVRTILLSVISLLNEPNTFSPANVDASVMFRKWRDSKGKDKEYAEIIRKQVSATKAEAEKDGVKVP
| Sequence | lacZ reporter activity |
| --- | --- |
| B1 (NHLRC1 RING domain) | 0 |
| B2 (TRIM47 RING domain) | 0 |
| SNNDLASLFECPVCFDYVLPPILQCQSGHLVCSNCRPKLTCCPTCRGPLGSIRNLA (SIAH1 RING domain (UniProt Q8IUQ4)) | 0 |
| B3 (TRIM2 RING domain) | 0 |
| PLRRLQEEKLCKICMDRHIAVVFIPCGHLVTCKQCAEAVDRCPMCSAVIDFKQRVF (BIRC8 RING domain (UniProt Q96P09)) | 0 |
| B4 (MDM2 RING domain) | 0 |
| B5 (TRIM34 RING domain) | 0 |
| EDVLSKDAGECAICLEELQQGDTIARLPCLCIYHKGCIDEWFEVNRSCPEHPSD (ZNRF2 RING domain (UniProt Q8NHG8)) | 0 |
| AAQLLEEKLTCAICLGLYQDPVTLPCGHNFCGACIRDWWDRCGKACPECREPFPDGAELR (TRIM65 RING domain (UniProt Q6PJ69)) | 0 |
| B6 (RNF10 RING domain) | 0 |
| B7 (UBE4B RING domain) | 0 |
| B8 (CBLL1 RING domain) | 0 |
| B9 (RNF7 RING domain) | 0 |
| EIKDYKARLTCPCCNMRKKDAVLTKCFHVFCFECVKTRYDTRQRKCPKCNAAFGANDFHR (RNF20 RING domain (UniProt Q5VTR2)) | 0 |

Set 6 — method: universal PBM; molecule type: double-stranded DNA, one strand shown; sample: in vitro; tested at: 600 nM; reading: higher = stronger binding
Target: Sal-like protein 4, full length isoform A (SALL4, Homo sapiens, UniProt Q9UJQ4, residues 1-1053)
Chain of UniProt Q9UJQ4 (whole entry, looked up): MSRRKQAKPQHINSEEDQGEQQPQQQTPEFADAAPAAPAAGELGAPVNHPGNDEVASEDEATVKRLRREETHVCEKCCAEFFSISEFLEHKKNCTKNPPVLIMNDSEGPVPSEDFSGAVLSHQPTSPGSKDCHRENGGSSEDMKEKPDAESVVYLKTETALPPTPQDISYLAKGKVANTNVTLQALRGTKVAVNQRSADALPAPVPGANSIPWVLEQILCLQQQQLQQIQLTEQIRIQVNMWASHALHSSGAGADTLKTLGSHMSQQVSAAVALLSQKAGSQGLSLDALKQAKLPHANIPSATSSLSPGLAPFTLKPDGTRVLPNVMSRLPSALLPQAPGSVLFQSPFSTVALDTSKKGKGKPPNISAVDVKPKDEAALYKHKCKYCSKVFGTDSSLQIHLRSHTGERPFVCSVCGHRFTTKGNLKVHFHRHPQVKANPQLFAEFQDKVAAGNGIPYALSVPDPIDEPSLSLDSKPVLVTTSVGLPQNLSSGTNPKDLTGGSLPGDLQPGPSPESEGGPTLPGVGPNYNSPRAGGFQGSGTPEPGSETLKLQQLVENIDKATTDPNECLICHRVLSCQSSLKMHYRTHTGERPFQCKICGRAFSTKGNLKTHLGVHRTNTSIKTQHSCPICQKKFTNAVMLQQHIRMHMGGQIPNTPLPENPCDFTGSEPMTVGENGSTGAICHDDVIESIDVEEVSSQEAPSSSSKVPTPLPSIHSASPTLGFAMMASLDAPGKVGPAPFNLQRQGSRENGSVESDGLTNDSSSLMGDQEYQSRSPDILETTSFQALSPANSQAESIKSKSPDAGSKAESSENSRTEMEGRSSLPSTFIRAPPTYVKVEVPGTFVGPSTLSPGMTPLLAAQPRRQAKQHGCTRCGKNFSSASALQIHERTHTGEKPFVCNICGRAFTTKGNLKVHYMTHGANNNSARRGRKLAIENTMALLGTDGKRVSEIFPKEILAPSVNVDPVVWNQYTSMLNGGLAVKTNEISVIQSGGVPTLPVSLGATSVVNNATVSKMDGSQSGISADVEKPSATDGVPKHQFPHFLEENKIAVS
Setting: 8-mer, flanks averaged, mean of replicates
| Strand | E-score |
| --- | --- |
| CTTATCAC | 0.014 |
| AGGAACTA | -0.00464 |
| ACTGACTA | 0.0314 |
| ACGCCCAT | -0.102 |
| AGTGGCTC | -0.184 |
| CAAAAACA | 0.148 |
| AGTAATCA | 0.0561 |
| ACATTCAG | 0.0452 |
| ACCGACTG | -0.306 |
| AAGGATGG | -0.03 |
| GACACCGC | -0.339 |
| ACACTGGC | -0.131 |
| GGTCTATA | 0.193 |
| AGAATTGC | 0.143 |
| CCAGCGAA | -0.25 |
| CGCAGGAA | -0.134 |
| CCACGTGG | -0.468 |
| AAAGCCTA | 0.036 |
| CATTTGGA | 0.111 |
| CGGTGCAG | -0.23 |
| CAATCACC | -0.00822 |
| AGAGTAAG | 0.0385 |
